{"data": "Results collected from several papers", "note": "Numbered parts are unrelated; each lists some results of a single study.", "chain of UniProt P52564 (whole entry, looked up)": "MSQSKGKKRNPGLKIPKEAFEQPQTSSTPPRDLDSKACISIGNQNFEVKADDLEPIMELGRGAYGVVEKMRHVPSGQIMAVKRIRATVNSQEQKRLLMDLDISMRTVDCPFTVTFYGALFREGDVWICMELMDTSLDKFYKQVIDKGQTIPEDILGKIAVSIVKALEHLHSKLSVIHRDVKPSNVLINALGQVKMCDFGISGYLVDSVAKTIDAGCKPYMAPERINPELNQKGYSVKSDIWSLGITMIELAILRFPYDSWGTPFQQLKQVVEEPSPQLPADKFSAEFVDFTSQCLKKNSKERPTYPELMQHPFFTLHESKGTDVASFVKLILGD", "chain of UniProt Q15208 (whole entry, looked up)": "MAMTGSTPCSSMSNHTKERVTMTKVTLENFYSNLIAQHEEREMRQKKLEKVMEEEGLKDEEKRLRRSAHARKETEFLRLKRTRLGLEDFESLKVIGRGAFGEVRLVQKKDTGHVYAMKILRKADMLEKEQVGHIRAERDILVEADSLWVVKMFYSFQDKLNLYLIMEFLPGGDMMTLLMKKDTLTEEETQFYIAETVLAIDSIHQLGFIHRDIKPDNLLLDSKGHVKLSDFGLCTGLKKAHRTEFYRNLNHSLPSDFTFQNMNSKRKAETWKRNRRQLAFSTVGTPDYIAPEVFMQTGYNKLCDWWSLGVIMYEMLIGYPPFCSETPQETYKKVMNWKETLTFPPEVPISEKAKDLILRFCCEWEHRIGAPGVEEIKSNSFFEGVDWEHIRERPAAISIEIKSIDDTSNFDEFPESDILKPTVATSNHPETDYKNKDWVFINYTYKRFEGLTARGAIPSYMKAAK", "chain of UniProt P53778 (whole entry, looked up)": "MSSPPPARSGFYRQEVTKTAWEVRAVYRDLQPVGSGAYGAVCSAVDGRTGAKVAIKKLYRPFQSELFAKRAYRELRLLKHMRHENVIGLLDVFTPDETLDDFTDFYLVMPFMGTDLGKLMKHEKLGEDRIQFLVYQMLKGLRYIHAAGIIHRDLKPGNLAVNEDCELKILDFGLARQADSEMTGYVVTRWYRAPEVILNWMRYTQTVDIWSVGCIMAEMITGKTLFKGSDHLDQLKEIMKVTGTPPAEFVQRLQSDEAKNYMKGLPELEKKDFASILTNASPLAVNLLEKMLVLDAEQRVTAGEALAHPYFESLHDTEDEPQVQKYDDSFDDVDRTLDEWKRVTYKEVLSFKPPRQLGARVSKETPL", "chain of UniProt P10721 (whole entry, unmodified, looked up)": "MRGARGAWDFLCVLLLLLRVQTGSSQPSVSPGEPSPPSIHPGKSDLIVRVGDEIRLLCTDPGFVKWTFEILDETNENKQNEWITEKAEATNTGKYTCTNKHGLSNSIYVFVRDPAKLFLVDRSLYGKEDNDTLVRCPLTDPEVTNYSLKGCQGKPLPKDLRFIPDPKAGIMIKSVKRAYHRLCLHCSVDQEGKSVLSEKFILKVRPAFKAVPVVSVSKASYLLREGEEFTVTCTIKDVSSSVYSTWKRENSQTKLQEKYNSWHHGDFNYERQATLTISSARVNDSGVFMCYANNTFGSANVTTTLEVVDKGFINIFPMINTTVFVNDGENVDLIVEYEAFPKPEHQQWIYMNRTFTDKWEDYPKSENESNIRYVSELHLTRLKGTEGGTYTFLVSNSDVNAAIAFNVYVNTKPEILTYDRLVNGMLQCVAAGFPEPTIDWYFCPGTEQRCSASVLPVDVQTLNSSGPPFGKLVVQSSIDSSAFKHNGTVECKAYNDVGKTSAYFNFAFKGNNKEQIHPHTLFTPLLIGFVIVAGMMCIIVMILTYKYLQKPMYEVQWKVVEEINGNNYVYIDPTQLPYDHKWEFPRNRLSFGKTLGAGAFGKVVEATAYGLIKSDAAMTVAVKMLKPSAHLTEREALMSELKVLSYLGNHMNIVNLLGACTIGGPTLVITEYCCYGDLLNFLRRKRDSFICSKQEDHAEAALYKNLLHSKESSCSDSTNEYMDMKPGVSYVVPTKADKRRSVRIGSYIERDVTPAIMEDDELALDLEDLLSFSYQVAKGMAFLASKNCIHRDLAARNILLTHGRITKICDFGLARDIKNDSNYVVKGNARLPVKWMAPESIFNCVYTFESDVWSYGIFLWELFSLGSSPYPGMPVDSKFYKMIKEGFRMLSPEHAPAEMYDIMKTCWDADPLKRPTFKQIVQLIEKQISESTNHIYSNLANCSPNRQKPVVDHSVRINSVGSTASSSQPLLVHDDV", "chain of UniProt P51957 (whole entry, looked up)": "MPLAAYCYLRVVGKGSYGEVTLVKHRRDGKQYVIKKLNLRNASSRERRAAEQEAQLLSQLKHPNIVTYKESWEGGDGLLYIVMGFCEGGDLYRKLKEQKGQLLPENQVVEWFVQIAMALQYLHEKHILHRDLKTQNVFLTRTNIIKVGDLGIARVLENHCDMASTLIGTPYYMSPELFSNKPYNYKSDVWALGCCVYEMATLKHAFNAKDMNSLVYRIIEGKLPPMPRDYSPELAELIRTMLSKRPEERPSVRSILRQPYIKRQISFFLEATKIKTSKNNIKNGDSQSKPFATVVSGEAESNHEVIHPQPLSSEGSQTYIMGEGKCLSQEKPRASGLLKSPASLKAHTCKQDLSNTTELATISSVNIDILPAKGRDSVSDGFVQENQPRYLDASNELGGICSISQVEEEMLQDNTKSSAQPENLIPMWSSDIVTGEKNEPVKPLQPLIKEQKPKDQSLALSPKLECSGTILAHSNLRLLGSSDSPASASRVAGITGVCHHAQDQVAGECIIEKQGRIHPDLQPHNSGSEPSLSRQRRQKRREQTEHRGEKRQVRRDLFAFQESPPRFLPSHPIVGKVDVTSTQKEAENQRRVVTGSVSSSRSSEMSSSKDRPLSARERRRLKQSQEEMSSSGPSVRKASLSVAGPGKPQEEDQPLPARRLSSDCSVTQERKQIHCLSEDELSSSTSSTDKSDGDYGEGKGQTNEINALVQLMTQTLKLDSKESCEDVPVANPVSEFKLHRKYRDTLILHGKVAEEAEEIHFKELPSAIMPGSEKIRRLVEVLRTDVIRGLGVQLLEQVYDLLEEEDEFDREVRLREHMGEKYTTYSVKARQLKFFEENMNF", "chain of UniProt P51812 (whole entry, looked up)": "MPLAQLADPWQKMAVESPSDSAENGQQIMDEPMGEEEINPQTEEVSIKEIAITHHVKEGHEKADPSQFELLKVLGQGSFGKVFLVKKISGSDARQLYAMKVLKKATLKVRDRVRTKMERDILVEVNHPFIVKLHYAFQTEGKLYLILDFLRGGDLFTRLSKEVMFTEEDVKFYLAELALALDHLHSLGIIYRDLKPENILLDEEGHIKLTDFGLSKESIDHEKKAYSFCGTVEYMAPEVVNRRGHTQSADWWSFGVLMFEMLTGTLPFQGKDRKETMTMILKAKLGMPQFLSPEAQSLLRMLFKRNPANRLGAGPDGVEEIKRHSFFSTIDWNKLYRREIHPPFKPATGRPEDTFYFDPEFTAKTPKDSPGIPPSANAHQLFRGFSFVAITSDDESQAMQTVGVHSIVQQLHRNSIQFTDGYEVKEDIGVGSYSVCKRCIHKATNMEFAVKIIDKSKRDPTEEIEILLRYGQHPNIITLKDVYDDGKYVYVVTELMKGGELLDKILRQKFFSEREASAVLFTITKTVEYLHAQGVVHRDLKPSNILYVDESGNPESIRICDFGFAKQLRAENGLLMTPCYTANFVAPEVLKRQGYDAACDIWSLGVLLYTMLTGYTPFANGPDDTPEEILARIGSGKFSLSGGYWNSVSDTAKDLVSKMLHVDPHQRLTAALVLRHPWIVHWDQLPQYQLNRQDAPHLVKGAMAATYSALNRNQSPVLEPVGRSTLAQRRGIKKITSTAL", "chain of UniProt O15111 (whole entry, looked up)": "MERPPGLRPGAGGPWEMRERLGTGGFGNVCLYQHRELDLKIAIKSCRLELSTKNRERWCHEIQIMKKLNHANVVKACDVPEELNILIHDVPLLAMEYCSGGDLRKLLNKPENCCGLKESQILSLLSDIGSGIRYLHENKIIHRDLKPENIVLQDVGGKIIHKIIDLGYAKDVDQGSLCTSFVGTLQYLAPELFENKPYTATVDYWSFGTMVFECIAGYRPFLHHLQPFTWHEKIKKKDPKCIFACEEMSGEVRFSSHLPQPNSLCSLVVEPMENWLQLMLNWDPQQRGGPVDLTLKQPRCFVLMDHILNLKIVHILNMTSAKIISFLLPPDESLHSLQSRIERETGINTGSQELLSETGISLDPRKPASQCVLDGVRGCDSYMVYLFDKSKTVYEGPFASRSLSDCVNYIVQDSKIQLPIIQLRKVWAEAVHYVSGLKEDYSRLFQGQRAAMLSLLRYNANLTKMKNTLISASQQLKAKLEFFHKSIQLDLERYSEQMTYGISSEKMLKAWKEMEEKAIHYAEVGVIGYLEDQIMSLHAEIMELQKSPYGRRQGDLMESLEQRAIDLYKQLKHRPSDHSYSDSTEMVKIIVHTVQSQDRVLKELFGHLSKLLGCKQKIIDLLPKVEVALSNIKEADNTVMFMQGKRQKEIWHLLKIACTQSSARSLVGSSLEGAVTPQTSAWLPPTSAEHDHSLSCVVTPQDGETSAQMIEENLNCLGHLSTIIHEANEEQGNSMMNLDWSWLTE", "chain of UniProt Q92772 (whole entry, looked up)": "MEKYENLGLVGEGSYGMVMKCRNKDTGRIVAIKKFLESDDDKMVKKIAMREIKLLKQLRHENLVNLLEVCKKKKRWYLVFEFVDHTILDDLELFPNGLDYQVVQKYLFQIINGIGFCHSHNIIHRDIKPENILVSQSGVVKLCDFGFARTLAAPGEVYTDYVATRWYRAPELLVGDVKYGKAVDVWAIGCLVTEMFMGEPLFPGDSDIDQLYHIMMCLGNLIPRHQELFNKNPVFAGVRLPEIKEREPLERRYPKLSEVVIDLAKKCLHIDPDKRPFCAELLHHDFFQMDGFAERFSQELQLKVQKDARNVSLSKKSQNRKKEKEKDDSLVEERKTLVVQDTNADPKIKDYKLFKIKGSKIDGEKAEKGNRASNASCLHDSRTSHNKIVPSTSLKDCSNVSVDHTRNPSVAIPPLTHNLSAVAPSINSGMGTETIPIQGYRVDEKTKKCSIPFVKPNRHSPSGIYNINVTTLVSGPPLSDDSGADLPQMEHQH"}
{"data": "Series 1", "SMILES": "CN1CCN(c2cnc3c(C4CCN(C(=O)c5ccc(OC(F)(F)F)cc5N)CC4)ncnc3c2)CC1", "method": "competition with immobilised ligand", "tested at": "1 µM"}
{"target": "FLT1 (Homo sapiens, UniProt P17948)", "read-out": "cell-free assay", "remaining binding [%]": 76}
{"target": "MAPKAPK5 (Homo sapiens, UniProt Q8IW41)", "read-out": "cell-free assay", "remaining binding [%]": 100}
{"target": "PIK3C3 (Homo sapiens, UniProt Q8NEB9)", "read-out": "cell-free assay", "remaining binding [%]": 100}
{"target": "Tyrosine-protein kinase ABL1, phosphorylated (ABL1, Homo sapiens, UniProt P00519)", "read-out": "cell-free assay", "remaining binding [%]": 86}
{"target": "MAPKAPK2 (Homo sapiens, UniProt P49137)", "read-out": "cell-free assay", "remaining binding [%]": 100}
{"target": "FLT3 (Homo sapiens, UniProt P36888, D835V)", "read-out": "cell-free assay", "remaining binding [%]": 90}
{"target": "PRKX (Homo sapiens, UniProt P51817)", "read-out": "cell-free assay", "remaining binding [%]": 100}
{"target": "Aurora kinase B (AURKB, Homo sapiens, UniProt Q96GD4)", "read-out": "cell-free assay", "remaining binding [%]": 90}
{"target": "NEK6 (Homo sapiens, UniProt Q9HC98)", "read-out": "cell-free assay", "remaining binding [%]": 92}
{"target": "DAPK3 (Homo sapiens, UniProt O43293)", "read-out": "cell-free assay", "remaining binding [%]": 91}
{"target": "KDR (Homo sapiens, UniProt P35968)", "read-out": "cell-free assay", "remaining binding [%]": 100}
{"target": "Tyrosine-protein kinase JAK3, JH1 (JAK3, Homo sapiens, UniProt P52333)", "read-out": "cell-free assay", "remaining binding [%]": 100}
{"target": "CDK15 (Homo sapiens, UniProt Q96Q40)", "read-out": "cell-free assay", "remaining binding [%]": 100}
{"target": "PIP4K2B (Homo sapiens, UniProt P78356)", "read-out": "cell-free assay", "remaining binding [%]": 79}
{"target": "ACVR2A (Homo sapiens, UniProt P27037)", "read-out": "cell-free assay", "remaining binding [%]": 100}
{"target": "Ribosomal protein S6 kinase alpha-3, C-terminal kinase domain (RPS6KA3, Homo sapiens, UniProt P51812)", "read-out": "cell-free assay", "remaining binding [%]": 80}
{"target": "CDKL2 (Homo sapiens, UniProt Q92772)", "read-out": "binding", "remaining binding [%]": 100}
{"target": "CAMK2D (Homo sapiens, UniProt Q13557)", "read-out": "cell-free assay", "remaining binding [%]": 100}
{"target": "MAP2K6 (Homo sapiens, UniProt P52564)", "read-out": "cell-free assay", "remaining binding [%]": 88}
{"target": "RET (Homo sapiens, UniProt P07949, M918T)", "read-out": "cell-free assay", "remaining binding [%]": 100}
{"target": "KIT (Homo sapiens, UniProt P10721, D816H)", "read-out": "cell-free assay", "remaining binding [%]": 100}
{"target": "FLT3 (Homo sapiens, UniProt P36888, ITD)", "read-out": "cell-free assay", "remaining binding [%]": 88}
{"target": "DCLK2 (Homo sapiens, UniProt Q8N568)", "read-out": "cell-free assay", "remaining binding [%]": 100}
{"target": "CSNK1E (Homo sapiens, UniProt P49674)", "read-out": "cell-free assay", "remaining binding [%]": 100}
{"target": "CDK14 (Homo sapiens, UniProt O94921)", "read-out": "cell-free assay", "remaining binding [%]": 100}
{"data": "Series 2", "read-out": "AlphaScreen signal", "method": "AlphaScreen counter screen", "matrix": "His6 peptide without bromodomain", "tested at": "50 µM", "setting": "assay interference check"}
{"Compound": "c1ccc(-c2n[nH]c3c2oc2ccccc23)cc1", "inhibition [%]": 11.8}
{"Compound": "CC(C)OC(=O)c1ccc(NC(=O)Nc2ccc(Cl)c(Cl)c2)cc1", "inhibition [%]": -7.5}
{"Compound": "O=C(NCCCNc1nc(Nc2cccc(NC(=O)N3CCCC3)c2)ncc1I)c1cccs1", "inhibition [%]": 15.6}
{"Compound": "CCOC(=O)C(CC)Sc1ccc2nnc(-c3cccc(F)c3)n2n1 (centres unmarked)", "inhibition [%]": 3.75}
{"Compound": "CCc1cc(-c2n[nH]c(C)c2-c2ccc3c(c2)OCCO3)c(O)cc1O", "inhibition [%]": 63.1}
{"Compound": "Fc1cccc(-c2nnc3ccc(SCc4ccccn4)nn23)c1", "inhibition [%]": 2.75}
{"Compound": "O=C(O)Cc1csc(NC(=O)c2ccc(Br)cc2)n1", "inhibition [%]": 19.9}
{"Compound": "COc1cc2ncnc(Nc3cccc(O)c3)c2cc1OC.Cl", "inhibition [%]": 6.35}
{"Compound": "CC(=O)NNC(=O)c1c(O)c2ccccc2[nH]c1=O", "inhibition [%]": 23.4}
{"Compound": "Cc1cc(C=C2C(=O)C=CC2=O)cc(C)c1O", "inhibition [%]": 14.7}
{"Compound": "CN1CCN(c2ccc3nc(-c4c(N)c5c(F)cccc5[nH]c4=O)[nH]c3c2)CC1", "inhibition [%]": 66.6}
{"Compound": "COc1ccc(Nc2ncc(F)c(N3CCOCC3)n2)cc1", "inhibition [%]": 15.7}
{"Compound": "N#CC(=Cc1ccc[nH]1)c1nc2ccc(C(F)(F)F)cc2s1", "inhibition [%]": 32.3}
{"Compound": "O=C1Nc2ccc(Br)cc2C1=CC(=O)c1ccc(F)cc1", "inhibition [%]": 65.5}
{"data": "Series 3", "SMILES": "O=C(Nc1ccccc1)Nc1cccc(Oc2ccc3nccn3n2)c1", "tested at": "1 µM"}
{"target": "PRKCQ (Homo sapiens, UniProt Q04759)", "method": "competitive binding panel", "baseline": "vehicle", "remaining binding [%]": 90}
{"target": "MAPK12 (Homo sapiens, UniProt P53778)", "method": "competitive binding", "setting": "p38-gamma", "remaining binding [%]": 81}
{"target": "STK38 (Homo sapiens, UniProt Q15208)", "method": "competitive binding panel", "item": "NDR1", "baseline": "vehicle", "remaining binding [%]": 96}
{"target": "SGK1 (Homo sapiens, UniProt O00141)", "method": "competitive binding", "setting": "SGK", "remaining binding [%]": 100}
{"target": "MAP4K5 (Homo sapiens, UniProt Q9Y4K4)", "method": "competitive binding panel", "baseline": "vehicle", "remaining binding [%]": 100}
{"target": "FER (Homo sapiens, UniProt P16591)", "method": "competitive binding panel", "baseline": "vehicle", "remaining binding [%]": 100}
{"target": "FRK (Homo sapiens, UniProt P42685)", "method": "competitive binding panel", "baseline": "vehicle", "remaining binding [%]": 100}
{"target": "SRPK1 (Homo sapiens, UniProt Q96SB4)", "method": "competitive binding panel", "baseline": "vehicle", "remaining binding [%]": 100}
{"target": "AKT1 (Homo sapiens, UniProt P31749)", "method": "competitive binding panel", "baseline": "vehicle", "remaining binding [%]": 68}
{"target": "CASK (Homo sapiens, UniProt O14936)", "method": "competitive binding panel", "baseline": "vehicle", "remaining binding [%]": 84}
{"target": "STK17A (Homo sapiens, UniProt Q9UEE5)", "method": "competitive binding panel", "item": "DRAK1", "baseline": "vehicle", "remaining binding [%]": 100}
{"target": "CHUK (Homo sapiens, UniProt O15111)", "method": "competitive binding", "setting": "IKK-alpha", "remaining binding [%]": 93}
{"target": "PAK2 (Homo sapiens, UniProt Q13177)", "method": "competitive binding panel", "baseline": "vehicle", "remaining binding [%]": 100}
{"target": "DCLK1 (Homo sapiens, UniProt O15075)", "method": "competitive binding panel", "item": "DCAMKL1", "baseline": "vehicle", "remaining binding [%]": 100}
{"data": "Series 4", "SMILES": "O=c1c(-c2ccc(F)cc2)c(-c2ccncc2)[nH]n1-c1ccc(Cl)cc1", "read-out": "enzyme activity", "mode": "inhibitor", "tested at": "0.5 µM", "baseline": "control"}
{"target": "MKNK2 (Homo sapiens, UniProt Q9HBH9)", "remaining activity": "97.2%"}
{"target": "MAP4K2 (Homo sapiens, UniProt Q12851)", "remaining activity": "87.7%"}
{"target": "AKT3 (Homo sapiens, UniProt Q9Y243)", "remaining activity": "94.3%"}
{"target": "LRRK2 (Homo sapiens, UniProt Q5S007)", "remaining activity": "102%"}
{"target": "PLK2 (Homo sapiens, UniProt Q9NYY3)", "remaining activity": "92.5%"}
{"target": "STK38 (Homo sapiens, UniProt Q15208)", "remaining activity": "93.7%"}
{"target": "PRKG1 (Homo sapiens, UniProt Q13976)", "remaining activity": "95.6%"}
{"target": "BTK (Homo sapiens, UniProt Q06187)", "remaining activity": "83.6%"}
{"target": "PRKCD (Homo sapiens, UniProt Q05655)", "remaining activity": "92.6%"}
{"target": "NEK4 (Homo sapiens, UniProt P51957)", "remaining activity": "93.9%"}
{"target": "WNK2 (Homo sapiens, UniProt Q9Y3S1)", "remaining activity": "112%"}
{"target": "CHEK1 (Homo sapiens, UniProt O14757)", "remaining activity": "101%"}
{"target": "LYN (Homo sapiens, UniProt P07948)", "remaining activity": "97.5%"}
{"target": "Cyclin-dependent kinase 9, with cyclin T1 (CDK9, Homo sapiens, UniProt P50750)", "remaining activity": "101%"}
{"target": "MAPK12 (Homo sapiens, UniProt P53778)", "remaining activity": "85.2%"}
{"target": "PRKCI (Homo sapiens, UniProt P41743)", "remaining activity": "96.2%"}
{"target": "EPHA5 (Homo sapiens, UniProt P54756)", "remaining activity": "106%"}
{"target": "KIT (Homo sapiens, UniProt P10721)", "remaining activity": "94.9%"}
{"target": "CSNK1A1 (Homo sapiens, UniProt P48729)", "remaining activity": "63.7%"}
{"target": "IRAK4 (Homo sapiens, UniProt Q9NWZ3)", "remaining activity": "81.9%"}
{"target": "MAPK13 (Homo sapiens, UniProt O15264)", "remaining activity": "102%"}
{"target": "MAP2K6 (Homo sapiens, UniProt P52564)", "remaining activity": "79.4%"}
{"target": "CSNK2A1 (Homo sapiens, UniProt P68400)", "remaining activity": "95.3%"}
{"target": "MAP3K10 (Homo sapiens, UniProt Q02779)", "remaining activity": "88.1%"}
